{"data": "Experimental data gathered from unrelated publications", "note": "Protocols differ between the studies behind these lines. “And” joins repeats or separate records; there may be more than shown. Numbers after ± are the reported error."}
{"SMILES": "CC(C)C[C@H](NC(=O)[C@H](C)NC(=O)[C@H](CCCCN)NC(=O)CCNC(=S)Nc1ccc2c(c1)C1(OC2=O)c2ccc(O)cc2Oc2cc(O)ccc21)C(=O)N[C@@H](CCC(=O)O)C(=O)N[C@H](C(=O)N[C@@H](CC(C)C)C(=O)N[C@@H](CCCNC(=N)N)C(=O)N[C@@]1(C)CCCC=CCCC[C@@](C)(C(=O)N[C@H](C(=O)N[C@@H](CCC(N)=O)C(=O)N[C@@H](CCCNC(=N)N)C(=O)N[C@@H](CC(N)=O)C(=O)N[C@@H](Cc2c[nH]cn2)C(=O)N[C@@H](CCC(=O)O)C(=O)N[C@H](C(=O)N[C@@H](C)C(=O)N[C@@H](Cc2ccccc2)C(N)=O)[C@@H](C)O)C(C)C)NC(=O)[C@H](CC(=O)O)NC(=O)CNC(=O)[C@H](C(C)C)NC1=O)[C@@H](C)O", "assay": "circular dichroism", "test system": "potassium phosphate buffer", "setting": "20 µM, pH 7.5", "quantity": "α-helicity", "result": "62%"}
{"SMILES": "CC(CCC(=O)NCC(=O)O)C1CCC2C3CCC4CC(OC5OC(C(=O)O)C(O)C(O)C5O)CCC4(C)C3CC(O)C12C (centres unmarked)", "test system": "human men", "setting": "dose not given, SLCO1B1 *5/*35", "quantity": "plasma concentration", "result": "79 ng/mL"}
{"SMILES": "Cc1cc(-c2ccc3ccccc3c2)nnc1NCCN1CCN(C)CC1", "assay": "metabolic stability", "test system": "human, liver microsomes", "setting": "30 min", "quantity": "compound remaining", "result": "91.1%"}
{"SMILES": "CC(C)[C@H](NC(=O)[C@@H](NC(=O)[C@H](CCCNC(=N)N)NC(=O)[C@H](CCCNC(=N)N)NC(=O)[C@H](CCCNC(=N)N)NC(=O)[C@H](CCC(N)=O)NC(=O)[C@H](CCCNC(=N)N)NC(=O)[C@H](CCCNC(=N)N)NC(=O)[C@H](CCCCN)NC(=O)[C@H](CCCCN)NC(=O)[C@H](CCCNC(=N)N)NC(=O)CN)[C@@H](C)O)C(=O)N[C@H](C(=O)N[C@@H](CO)C(=O)N1CCC[C@H]1C(=O)O)[C@@H](C)O", "test system": "ICR mice, male, spleen", "setting": "intranasal, 10 mg/kg daily, 4 weeks", "quantity": "organ weight", "result": "0.086 ± 0.007 g"}
{"SMILES": "C=CC(=O)Nc1cccc(Cn2ncc3cnc(Nc4cnn(CCOC)c4)nc32)c1", "test system": "Sprague-Dawley rat male, serum", "setting": "oral, 180 mg/kg, day 28, 28-day subacute toxicity", "quantity": "serum albumin", "result": "22 ± 5.8 g/L"}
{"SMILES": "CC(C)[C@@H]1NC(=O)CNC(=O)[C@H](CC(N)=O)NC(=O)[C@H](CCCNC(=N)N)NC(=O)[C@H](Cc2ccc(O)cc2)NC(=O)[C@H](C(C)C)NC(=O)[C@@H](NC(=O)[C@@H](NC(=O)[C@H](CC(N)=O)NC(=O)[C@H](Cc2c[nH]c3ccccc23)NC(=O)[C@H](C)NC(=O)[C@H](Cc2ccccc2)NC(=O)CNC(=O)[C@H](CCCCN)NC(=O)[C@H](Cc2ccccc2)NC(=O)[C@H](Cc2ccccc2)NC(=O)[C@H](CCCCN)NC(=O)OCC2c3ccccc3-c3ccccc32)C(C)C)CSSC[C@@H](C(=O)N[C@@H](Cc2c[nH]cn2)C(=O)N[C@@H](CCCNC(=N)N)C(=O)N[C@@H](CCCNC(=N)N)C(=O)N[C@@H](C)C(=O)N[C@@H](CC(N)=O)C(N)=O)NC(=O)[C@H](C(C)C)NC(=O)[C@H](CCCNC(=N)N)NC1=O", "test system": "ICR mouse, blood", "setting": "intramammary, 5 mg/kg, day 5, 3 d dosing", "quantity": "haematocrit", "result": "41.7 ± 1.76%"}
{"SMILES": "CC(C)C[C@@H](NC(=O)[C@@H](CCCCN)NC(=O)CNC(=O)CNC(=O)[C@@H]1CSSC[C@H](N)C(=O)NCC(=O)N[C@@H](CCCNC(=N)N)C(=O)N[C@@H](CCCNC(=N)N)C(=O)N[C@@H](C)C(=O)NCC(=O)NCC(=O)N[C@@H](CO)C(=O)N1)C(=O)N[C@H](C)C(=O)N[C@H](CCCCN)C(=O)N[C@H](CC(C)C)C(=O)N[C@H](C)C(=O)N[C@H](CCCCN)C(=O)N[C@H](CCCCN)C(=O)N[C@H](CC(C)C)C(=O)N[C@H](C)C(=O)N[C@H](CCCCN)C(=O)N[C@H](CC(C)C)C(=O)N[C@H](C)C(=O)N[C@H](CCCCN)C(=O)O", "assay": "immunohistochemistry", "test system": "mouse, kidney", "setting": "20 min", "quantity": "lowest detectable dose", "result": "0.3 mg/kg"}
{"SMILES": "CCCCC[C@H]1C(=O)N[C@H](C)C(=O)N(C)[C@@H](CCCCC)C(=O)N[C@H](C)C(=O)N(C)[C@@H](CCCCC)C(=O)N[C@H](C)C(=O)N(C)[C@@H](CCCCC)C(=O)N(C)[C@H](C)C(=O)N1C", "assay": "PAMPA, HPLC-UV", "setting": "500 µM, pH 7.4", "quantity": "log Papp", "result": "-5.83 ± 0.04"}
{"SMILES": "C=Cc1c(C)c2cc3nc(c(CC(=O)[O-])c4[n-]c(cc5nc(cc1[n-]2)C(C)=C5CC)c(C)c4C(=O)[O-])C(CCC(=O)[O-])C3C.[Cu+2].[Na+].[Na+].[Na+] (centres unmarked)", "test system": "Wistar rat, female", "setting": "oral, 1000 mg/kg daily, 28 days", "quantity": "serum cholesterol", "result": "39.2 ± 16.6 mg/dL"}
{"SMILES": "CC[C@H](C)[C@H](NC(=O)[C@H](C)NC(=O)[C@H](CCCCN)NC(=O)[C@H](CCCCN)NC(=O)[C@@H](N)CCCNC(=N)N)C(=O)N[C@@H](CCCCN)C(=O)N[C@@H](CC(C)C)C(=O)N[C@H](C(=O)N[C@@H](CCCCN)C(=O)N[C@@H](CCCCN)C(=O)N[C@@H](CC(C)C)C(=O)N[C@H](C(=O)N[C@@H](CCCCN)C(=O)N[C@@H](CCCCN)C(=O)N[C@@H](CC(C)C)C(=O)N[C@@H](CCCCN)C(=O)N[C@@H](CCCCN)C(=O)N[C@@H](C)C(=O)N[C@@H](CC(C)C)C(=O)N[C@@H](CCCCN)C(=O)O)C(C)C)C(C)C", "test system": "human red blood cells", "setting": "8 mg/L, 1 h, mean of replicates", "quantity": "hemolysis", "result": "1.68%"}
{"SMILES": "O=C1NC2(CC2)COc2ncc(F)cc2[C@H]2COCCN2c2ccn3ncc1c3n2", "test system": "Sprague-Dawley rat, female, kidneys", "setting": "oral, 5 mg/kg/day, 4 weeks dosing, end of recovery", "quantity": "organ-to-body weight ratio", "result": "0.645 ± 0.032%"}
{"SMILES": "CC[C@H](C)[C@H](NC(=O)[C@H](CCCCN)NC(=O)CNC(=O)[C@H](CC(C)C)NC(=O)[C@H](Cc1ccccc1)NC(=O)[C@H](CCCCN)NC(=O)[C@H](CO)NC(=O)[C@H](Cc1ccccc1)NC(=O)[C@H](Cc1c[nH]c2ccccc12)NC(=O)[C@H](CCC(N)=O)NC(=O)[C@@H](NC(=O)[C@H](Cc1ccccc1)NC(=O)CCCCCNC(=O)CN1CCN(CC(=O)O)CCN(CC(=O)O)CCN(CC(=O)O)CC1)C(C)C)C(=O)N[C@@H](CCC(=O)O)C(=O)N1CCC[C@H]1C(=O)N[C@@H](CC(=O)O)C(=O)N[C@H](C(=O)N[C@@H](CO)C(=O)N[C@@H](CCC(N)=O)C(=O)N[C@H](C(=O)N[C@@H](CCC(N)=O)C(=O)N[C@@H](CC(=O)O)C(=O)N1CCC[C@H]1C(=O)N[C@@H](CC(N)=O)C(=O)N[C@@H](CC(=O)O)C(=O)N[C@@H](CCC(N)=O)C(=O)N[C@@H](Cc1ccc(O)cc1)C(=O)N[C@@H](CCC(=O)O)C(=O)N1CCC[C@H]1C(=O)N[C@@H](Cc1ccccc1)C(=O)O)C(C)C)C(C)C [copper-64 labelled]", "test system": "C57BL/6 mice, male, tumour-free, heart", "setting": "0.5 h", "quantity": "tissue uptake", "result": "3.07 ± 0.3 %ID/g"}
{"SMILES": "NC1CCN(C(=O)Oc2ccc(C3CCCC4(C3)OOC3(O4)C4CC5CC(C4)CC3C5)cc2)CC1 (racemic)", "test system": "citrate buffer", "setting": "24 h, anaerobic, together with: 50 mM ferrous iron", "quantity": "parent remaining", "result": "> 50% and 67%"}
{"SMILES": "CSCC[C@H](N)C(=O)N[C@@H](C)C(=O)N[C@@H](Cc1c[nH]c2ccccc12)C(=O)N[C@@H](Cc1c[nH]cn1)C(=O)N[C@@H](CC(=O)O)C(=O)N[C@@H](CC(=O)O)C(=O)N[C@@H](CCC(=O)O)C(=O)N[C@@H](CCC(=O)O)C(=O)N[C@@H](Cc1ccccc1)C(=O)N[C@@H](C)C(=O)N[C@@H](CCCNC(=N)N)C(=O)N[C@@H](CCCNC(=N)N)C(=O)N[C@@H](CCCNC(=N)N)C(=O)N[C@@H](CCCNC(=N)N)C(=O)NCCCCCC(=O)NCCCCC(NC(=O)CCCCCNC(=O)[C@H](CCCNC(=N)N)NC(=O)[C@H](CCCNC(=N)N)NC(=O)[C@H](CCCNC(=N)N)NC(=O)[C@H](CCCNC(=N)N)NC(=O)[C@H](C)NC(=O)[C@H](Cc1ccccc1)NC(=O)[C@H](CCC(=O)O)NC(=O)[C@H](CCC(=O)O)NC(=O)[C@H](CC(=O)O)NC(=O)[C@H](CC(=O)O)NC(=O)[C@H](Cc1c[nH]cn1)NC(=O)[C@H](Cc1c[nH]c2ccccc12)NC(=O)[C@H](C)NC(=O)[C@@H](N)CCSC)C(=O)NCCCCC(NC(=O)C(CCCCNC(=O)CCCCCNC(=O)[C@H](CCCNC(=N)N)NC(=O)[C@H](CCCNC(=N)N)NC(=O)[C@H](CCCNC(=N)N)NC(=O)[C@H](CCCNC(=N)N)NC(=O)[C@H](C)NC(=O)[C@H](Cc1ccccc1)NC(=O)[C@H](CCC(=O)O)NC(=O)[C@H](CCC(=O)O)NC(=O)[C@H](CC(=O)O)NC(=O)[C@H](CC(=O)O)NC(=O)[C@H](Cc1c[nH]cn1)NC(=O)[C@H](Cc1c[nH]c2ccccc12)NC(=O)[C@H](C)NC(=O)[C@@H](N)CCSC)NC(=O)CCCCCNC(=O)[C@H](CCCNC(=N)N)NC(=O)[C@H](CCCNC(=N)N)NC(=O)[C@H](CCCNC(=N)N)NC(=O)[C@H](CCCNC(=N)N)NC(=O)[C@H](C)NC(=O)[C@H](Cc1ccccc1)NC(=O)[C@H](CCC(=O)O)NC(=O)[C@H](CCC(=O)O)NC(=O)[C@H](CC(=O)O)NC(=O)[C@H](CC(=O)O)NC(=O)[C@H](Cc1c[nH]cn1)NC(=O)[C@H](Cc1c[nH]c2ccccc12)NC(=O)[C@H](C)NC(=O)[C@@H](N)CCSC)C(N)=O (some centres unmarked)", "test system": "C57BL/6 mouse female, lungs", "setting": "dose not given, 6 h", "scale": "baseline: total", "quantity": "tissue distribution", "result": "1.47% and 1.67% and 1.78%"}
{"SMILES": "CN1Cc2cc(Cl)ccc2-n2c(nnc2C2CCN(c3cccc([18F])n3)CC2)C1", "test system": "C57BL/6 mouse male, small intestine", "setting": "intravenous, 3.7 MBq, 15 min", "quantity": "tissue uptake", "result": "14.4 ± 9.3 %ID/g"}
{"SMILES": "C#Cc1c(F)ccc2cc(O)cc(-c3ncc4c(N5CC6CCC(C5)N6C(=O)OC(C)OC(=O)COCCOC)nc(OC[C@@]56CCCN5C[C@H](F)C6)nc4c3F)c12 (some centres unmarked)", "assay": "item: prodrug", "test system": "mouse whole blood", "setting": "1 µM", "quantity": "t1/2", "result": "35.4 s"}
{"SMILES": "C[C@H](O)[C@@H](NC(=O)[C@H]1CCCN1C(=O)[C@@H](CCCCN)NC(=O)[C@@H](CO)NC(=O)[C@@H](Cc1ccc(O)cc1)NC(=O)[C@@H](CC(N)=O)NC(=O)CCOCCOCCOCCNC(=O)CN1CCN(CC(=O)O)CCN(CC(=O)O)CCN(CC(=O)O)CC1)C(=O)N[C@H](CC(=O)O)C(=O)N[C@H](CCCNC(=N)N)C(=O)N[C@H](CCC(N)=O)C(=O)N[C@H](Cc1ccc(O)cc1)C(=O)N[C@H](Cc1c[nH]cn1)C(=O)N[C@H](Cc1ccccc1)C(N)=O [copper-64 labelled]", "test system": "C57BL/6J mice, bone", "setting": "intravenous, 1.85 MBq, 1 h, radiolabelled", "quantity": "tissue uptake", "result": "0.41 ± 0.18 %ID/g"}
{"note": "For quick reference, copied from above:"}
{"SMILES": "C#Cc1c(F)ccc2cc(O)cc(-c3ncc4c(N5CC6CCC(C5)N6C(=O)OC(C)OC(=O)COCCOC)nc(OC[C@@]56CCCN5C[C@H](F)C6)nc4c3F)c12 (some centres unmarked)", "assay": "item: prodrug", "test system": "mouse whole blood", "setting": "1 µM", "quantity": "t1/2", "result": "35.4 s"}
{"SMILES": "C[C@H](O)[C@@H](NC(=O)[C@H]1CCCN1C(=O)[C@@H](CCCCN)NC(=O)[C@@H](CO)NC(=O)[C@@H](Cc1ccc(O)cc1)NC(=O)[C@@H](CC(N)=O)NC(=O)CCOCCOCCOCCNC(=O)CN1CCN(CC(=O)O)CCN(CC(=O)O)CCN(CC(=O)O)CC1)C(=O)N[C@H](CC(=O)O)C(=O)N[C@H](CCCNC(=N)N)C(=O)N[C@H](CCC(N)=O)C(=O)N[C@H](Cc1ccc(O)cc1)C(=O)N[C@H](Cc1c[nH]cn1)C(=O)N[C@H](Cc1ccccc1)C(N)=O [copper-64 labelled]", "test system": "C57BL/6J mice, bone", "setting": "intravenous, 1.85 MBq, 1 h, radiolabelled", "quantity": "tissue uptake", "result": "0.41 ± 0.18 %ID/g"}
